Experimental data from different studies.
Organism: Acinetobacter baumannii

Structure (SMILES) | technique | strain | sample | time | temperature | setting | MIC
CCn1c(-c2ccc(OC)cc2)c(-c2ccc(OC)cc2)n(CC)c1=[Se] | broth microdilution | carbapenem-resistant | – | 24 h | – | – | > 40 µM
C#CCNC(=O)[C@H]1NC(=O)[C@H]2NC(=O)[C@H](NC(=O)[C@@H]3NC(=O)[C@H](CC(N)=O)NC(=O)[C@H](NC(=O)[C@@H](CC(C)C)NC)[C@H](O)c4ccc(c(Cl)c4)Oc4cc3cc(c4O[C@@H]3O[C@H](CO)[C@@H](O)[C@H](O)[C@H]3O[C@H]3C[C@](C)(N)[C@H](O)[C@H](C)O3)Oc3ccc(cc3Cl)[C@H]2O)c2ccc(O)c(c2)-c2c(O)cc(O)cc21 | broth microdilution | BAA-747 | – | – | – | – | 86 µM
Oc1c(Br)cc(Br)c2nc3cc(C(F)(F)F)ccc3nc12 | broth microdilution | ATCC 17978 | – | – | – | – | 7.88 µg/mL
CCCCCCCC(=O)N[C@@H](CCN)C(=O)N[C@H](C(=O)N[C@@H](CCN)C(=O)N[C@H]1CCNC(=O)[C@H](C)NC(=O)[C@H](CCN)NC(=O)[C@H](CCN)NC(=O)[C@H](CC(C)C)NC(=O)[C@@H](Cc2ccccc2)NC(=O)[C@H](CCN)NC1=O)[C@@H](C)O | CLSI broth microdilution | 248-01-C.248 | CAMHB | 20 h | 37 °C | – | 0.5 µg/mL
CC(C)C[C@H](NC(=O)[C@@H](NC(=O)[C@H](CCCNC(=N)N)NC(=O)[C@H](CCC(N)=O)NC(=O)[C@H](Cc1ccccc1)NC(=O)[C@H](Cc1ccc(O)cc1)NC(=O)[C@H](CC(N)=O)NC(=O)[C@H](Cc1c[nH]c2ccccc12)NC(=O)[C@@H](NC(=O)[C@H](CCCNC(=N)N)NC(=O)[C@H](CCCCN)NC(=O)[C@@H](N)Cc1ccccc1)C(C)C)C(C)C)C(=O)N[C@H](C(=O)N[C@@H](CCCCN)C(=O)N[C@@H](CCCCN)C(=O)N[C@@H](Cc1ccc(O)cc1)C(N)=O)C(C)C | broth dilution | ATCC 19606 | – | – | – | – | < 3.1 µM
CCCCCCCC(=O)N[C@@H](CCN)C(=O)N[C@H](C(=O)N[C@@H](C)C(=O)N[C@H]1CCNC(=O)[C@H]([C@@H](C)O)NC(=O)[C@H](CCN)NC(=O)[C@H](CCN)NC(=O)[C@H](CC(C)C)NC(=O)[C@@H](Cc2ccccc2)NC(=O)[C@H](CCN)NC1=O)[C@@H](C)O | CLSI broth microdilution | 5075 | CAMHB | 20 h | 37 °C | – | 4 µg/mL
CC(=O)N[C@H](Cc1ccc(Cl)cc1)C(=O)N[C@@H](CCN)C(=O)N[C@H](C(=O)N[C@@H](CCN)C(=O)N[C@H]1CCNC(=O)[C@H]([C@@H](C)O)NC(=O)[C@H](CCN)NC(=O)[C@H](CCN)NC(=O)[C@H](CC(C)C)NC(=O)[C@@H](Cc2ccccc2)NC(=O)[C@H](CCN)NC1=O)[C@@H](C)O | broth microdilution | ATCC 19606, colistin-susceptible | – | – | – | – | 0.5 to 1 µg/mL
O=[N+]([O-])c1c(Br)c(Cl)c2cccnc2c1O | broth microdilution | – | – | – | – | carbapenem-resistant clinical isolate | 2 µg/mL
CC[C@H](C)[C@H](NC(=O)[C@@H](CCCNC(=N)N)NC(=O)[C@H](CCCNC(=N)N)NC(=O)[C@@H]1CCCN1C(=O)[C@@H]1CCCN1C(=O)[C@H](CCCNC(=N)N)NC(=O)[C@@H]1CCCN1C(=O)[C@H](CCCNC(=N)N)NC(=O)[C@@H]1CCCN1C(=O)[C@H](CC(C)C)NC(=O)[C@H](Cc1ccc(O)cc1)NC(=O)[C@H](Cc1ccc(O)cc1)NC(=O)[C@@H]1CCCN1C(=O)[C@H](CCCCN)NC(=O)[C@H](CC(=O)O)NC(=O)[C@@H](N)C(C)C)C(=O)N[C@@H](Cc1ccc(O)cc1)C(=O)N[C@@H](CC(N)=O)C(=O)N[C@H](CCCNC(=N)N)C(N)=O | broth microdilution | DSM 30008 | – | 18 h | 37 °C | 25% MHB2 | 16 µg/mL
CCCCCCCCCC(=O)NCCCC[C@H](NC(=O)[C@H](CCCCN)NC(=O)[C@@H]1CSCC(=O)N[C@@H](CCCCN)C(=O)N[C@@H](CC(C)C)C(=O)N[C@@H](CCCCN)C(=O)NCCCC[C@@H]2NC(=O)[C@H](CCCCN)NC(=O)[C@H](CC(C)C)NC(=O)[C@H](CCCCN)NC(=O)CSC[C@H](NC(=O)[C@H](CC(C)C)NC(=O)[C@H](CC(C)C)NC(=O)[C@H](CCCCN)NC2=O)C(=O)N[C@@H](CC(C)C)C(=O)N[C@@H](CC(C)C)C(=O)N[C@@H](CC(C)C)C(=O)N1)C(N)=O | broth microdilution | ATCC 19606 | – | – | – | – | 8 µg/mL
CC[C@H](C)[C@H](NC(=O)[C@H](CCCNC(=N)N)NC(=O)[C@@H](NC(=O)[C@@H](NC(=O)[C@H](CCCNC(=N)N)NC(=O)[C@H](CCCCN)NC(=O)[C@H](Cc1ccccc1)NC(=O)[C@H](CCCNC(=N)N)NC(=O)[C@H](CCCCN)NC(=O)[C@@H](NC(=O)[C@@H](N)CCCCN)[C@@H](C)CC)[C@@H](C)CC)C(C)C)C(=O)N[C@@H](CCCCN)C(=O)N[C@@H](Cc1ccccc1)C(=O)N[C@@H](CC(C)C)C(=O)N[C@@H](CCCNC(=N)N)C(=O)N[C@H](C(=O)N[C@H](C(=O)N[C@@H](CCCNC(=N)N)C(=O)N[C@@H](CCCNC(=N)N)C(N)=O)C(C)C)C(C)C | broth microdilution | 18 | – | – | – | – | 1.25 µg/mL
CC[C@H](C)[C@H](NC(=O)[C@@H](CCCNC(=N)N)NC(=O)[C@H](CCCNC(=N)N)NC(=O)[C@H](C)NC(=O)[C@H](Cc1c[nH]c2ccccc12)NC(=O)[C@H](CCCNC(=N)N)NC(=O)[C@@H]1CCCN1C(=O)[C@H](CCCNC(=N)N)NC(=O)[C@@H]1CCCN1C(=O)[C@H](CC(C)C)NC(=O)[C@H](Cc1ccc(O)cc1)NC(=O)[C@@H]1CCCN1C(=O)[C@@H]1CCCN1C(=O)[C@H](CCCCN)NC(=O)[C@H](CC(=O)O)NC(=O)[C@@H](N)C(C)C)C(=O)N[C@@H](Cc1ccc(O)cc1)C(=O)N[C@@H](CC(N)=O)C(=O)N[C@H](CCCNC(=N)N)C(N)=O | broth microdilution | DSM 30008 | – | 18 h | 37 °C | 25% MHB2 | 32 µg/mL
CC(=O)N[C@H](Cc1ccc(F)cc1)C(=O)N[C@@H](CCN)C(=O)N[C@H](C(=O)N[C@@H](CCN)C(=O)N[C@H]1CCNC(=O)[C@H]([C@@H](C)O)NC(=O)[C@H](CCN)NC(=O)[C@H](CCN)NC(=O)[C@H](CC(C)C)NC(=O)[C@@H](Cc2ccccc2)NC(=O)[C@H](CCN)NC1=O)[C@@H](C)O | broth microdilution | ATCC 19606, colistin-susceptible | – | – | – | – | 2 to 4 µg/mL
CC[C@H](C)[C@H](NC(=O)[C@@H](CCCNC(=N)N)NC(=O)[C@H](CCCNC(=N)N)NC(=O)[C@H](CCC(=O)O)NC(=O)[C@H](Cc1c[nH]c2ccccc12)NC(=O)[C@H](CCCNC(=N)N)NC(=O)[C@@H]1CCCN1C(=O)[C@H](CCCNC(=N)N)NC(=O)[C@@H]1CCCN1C(=O)[C@H](CC(C)C)NC(=O)[C@H](Cc1ccc(O)cc1)NC(=O)[C@@H]1CCCN1C(=O)[C@@H]1CCCN1C(=O)[C@H](CCCCN)NC(=O)[C@H](CC(=O)O)NC(=O)[C@@H](N)C(C)C)C(=O)N[C@@H](Cc1ccc(O)cc1)C(=O)N[C@@H](CC(N)=O)C(=O)N[C@H](CCCNC(=N)N)C(N)=O | broth microdilution | DSM 30008 | – | 18 h | 37 °C | 25% MHB2 | 128 µg/mL
CN[C@H](CC(C)C)C(=O)N[C@H]1C(=O)N[C@@H](CC(N)=O)C(=O)N[C@H]2C(=O)N[C@H]3C(=O)N[C@H](C(=O)N[C@H](C(=O)O)c4cc(O)cc(O)c4-c4cc3ccc4O)[C@H](O)c3ccc(c(Cl)c3)Oc3cc2cc(c3O[C@@H]2O[C@H](CO)[C@@H](O)[C@H](O)[C@H]2O[C@H]2C[C@](C)(NCc3ccc(OCc4cn(CCCCC(=O)N[C@H](C(=O)N[C@@H](CCN)C(=O)N[C@H]5CCNC(=O)[C@H]([C@@H](C)O)NC(=O)[C@H](CCN)NC(=O)[C@H](CCN)NC(=O)[C@H](CC(C)C)NC(=O)[C@@H](CC(C)C)NC(=O)[C@H](CCN)NC5=O)[C@@H](C)O)nn4)c(OC)c3)[C@H](O)[C@H](C)O2)Oc2ccc(cc2Cl)[C@H]1O | broth microdilution | BAA-747 | – | – | – | – | 12 µM
CCCCCCCC(=O)N[C@@H](CCN)C(=O)N[C@H](C(=O)N[C@@H](CCN)C(=O)N[C@H]1CCNC(=O)[C@H]([C@@H](C)O)NC(=O)[C@H](CCN)NC(=O)[C@H](CCN)NC(=O)[C@H](C)NC(=O)[C@@H](Cc2ccccc2)NC(=O)[C@H](CCN)NC1=O)[C@@H](C)O | CLSI broth microdilution | 246-01-C.246 | CAMHB | 20 h | 37 °C | – | 0.5 µg/mL
CCCCCCCC(=O)N[C@@H](CCN)C(=O)N[C@H](C(=O)N[C@@H](CCN)C(=O)N[C@H]1CCNC(=O)[C@H]([C@@H](C)O)NC(=O)[C@H](CCN)NC(=O)[C@H](CCN)NC(=O)[C@H](CCC(C)C)NC(=O)[C@@H](Cc2ccccc2)NC(=O)[C@H](CCN)NC1=O)[C@@H](C)O | broth microdilution | ATCC 19606, colistin-susceptible | – | – | – | – | < 0.125 µg/mL
CC[C@H](C)[C@H](NC(=O)[C@@H](CCCNC(=N)N)NC(=O)[C@H](CCCNC(=N)N)NC(=O)[C@@H]1CCCN1C(=O)[C@@H]1CCCN1C(=O)[C@H](CCCNC(=N)N)NC(=O)[C@@H]1CCCN1C(=O)[C@H](CCCNC(=N)N)NC(=O)[C@@H]1CCCN1C(=O)[C@@H](NC(=O)[C@H](Cc1ccc(O)cc1)NC(=O)[C@@H]1CCCN1C(=O)[C@@H]1CCCN1C(=O)[C@H](CCCCN)NC(=O)[C@H](CC(=O)O)NC(=O)[C@@H](N)C(C)C)C(C)(C)C)C(=O)N[C@@H](Cc1ccc(O)cc1)C(=O)N[C@@H](CC(N)=O)C(=O)N[C@H](CCCNC(=N)N)C(N)=O | broth microdilution | DSM 30008 | – | 18 h | 37 °C | 25% MHB2 | 64 µg/mL

For quick reference, copied from above:
Structure (SMILES) | technique | strain | sample | time | temperature | setting | MIC
CC[C@H](C)[C@H](NC(=O)[C@H](CCCNC(=N)N)NC(=O)[C@@H](NC(=O)[C@@H](NC(=O)[C@H](CCCNC(=N)N)NC(=O)[C@H](CCCCN)NC(=O)[C@H](Cc1ccccc1)NC(=O)[C@H](CCCNC(=N)N)NC(=O)[C@H](CCCCN)NC(=O)[C@@H](NC(=O)[C@@H](N)CCCCN)[C@@H](C)CC)[C@@H](C)CC)C(C)C)C(=O)N[C@@H](CCCCN)C(=O)N[C@@H](Cc1ccccc1)C(=O)N[C@@H](CC(C)C)C(=O)N[C@@H](CCCNC(=N)N)C(=O)N[C@H](C(=O)N[C@H](C(=O)N[C@@H](CCCNC(=N)N)C(=O)N[C@@H](CCCNC(=N)N)C(N)=O)C(C)C)C(C)C | broth microdilution | 18 | – | – | – | – | 1.25 µg/mL
CC[C@H](C)[C@H](NC(=O)[C@@H](CCCNC(=N)N)NC(=O)[C@H](CCCNC(=N)N)NC(=O)[C@H](C)NC(=O)[C@H](Cc1c[nH]c2ccccc12)NC(=O)[C@H](CCCNC(=N)N)NC(=O)[C@@H]1CCCN1C(=O)[C@H](CCCNC(=N)N)NC(=O)[C@@H]1CCCN1C(=O)[C@H](CC(C)C)NC(=O)[C@H](Cc1ccc(O)cc1)NC(=O)[C@@H]1CCCN1C(=O)[C@@H]1CCCN1C(=O)[C@H](CCCCN)NC(=O)[C@H](CC(=O)O)NC(=O)[C@@H](N)C(C)C)C(=O)N[C@@H](Cc1ccc(O)cc1)C(=O)N[C@@H](CC(N)=O)C(=O)N[C@H](CCCNC(=N)N)C(N)=O | broth microdilution | DSM 30008 | – | 18 h | 37 °C | 25% MHB2 | 32 µg/mL
